Experimental data of several laboratories.
Lines come from different studies, so protocols differ. Values joined by “and” are separate records of one study, mostly repeats; a detail may differ.
B1: SCO6712 V290N/Y229F (Streptomyces coelicolor, UniProt Q9XAL8); chain AKGITARTAPAGGEVRHLKMYAEKLADGQMGYGFEKGKASVPGPLIEVNEGDTLHIEFTNTMDVRASLHVHGLDYEISSDGTAMNKSDVEPGGTRTYTWRTHKPGRRDDGTWRPGSAGYWHYHDHVVGTEHGTGGIRNGLYGPVIVRRKGDVLPDATHTIVFNDMTINNRKPHTGPDFEATVGDRVEIVMITHGEFYHTFHMHGHRWADNRTGILTGPDDPSRVIDNKITGPADSFGFQIIAGEGVGAGAWMYHCHNQSHSDMGMVGLFLVKKPDGTIPGYEPHEHGGATAKSGESGEPTGGAAAHEHEH
B2: enzyme (Azotobacter vinelandii, UniProt C1DN94); chain MSESPLRLDRLRDFVSALGELLDRHPDEESVLREGRSLLGELVRHDDWLPEEFAQPDPERYQQYLLHADSRQRFSVVSFVWGPGQTTPVHDHRVWGLIGMLRGAEDAQSFELGAEGLRPIGDPVRLSPGQVEAVSPRIGDIHRVFNASPDQPSISIHVYGANIGAVRRAVYLPDGSEKPFISGYSNQFLPNIWDQSKESARP
B3: PYCR2 R119C (Homo sapiens, UniProt Q96C36); chain MSVGFIGAGQLAYALARGFTAAGILSAHKIIASSPEMNLPTVSALRKMGVNLTRSNKETVKHSDVLFLAVKPHIIPFILDEIGADVQARHIVVSCAAGVTISSVEKKLMAFQPAPKVICCMTNTPVVVQEGATVYATGTHALVEDGQLLEQLMSSVGFCTEVEEDLIDAVTGLSGSGPAYAFMALDALADGGVKMGLPRRLAIQLGAQALLGAAKMLLDSEQHPCQLKDNVCSPGGATIHALHFLESGGFRSLLINAVEASCIRTRELQSMADQEKISPAALKKTLLDRVKLESPTVSTLTPSSPGKLLTRSLALGGKKD
B4: enzyme (Arabidopsis thaliana, UniProt Q9LY48); chain MNIFQDWPEPIVRVQSLSESNLGAIPNRYVKPLSQRPNITPHNKHNPQTTTIPIIDLGRLYTDDLTLQAKTLDEISKACRELGFFQVVNHGMSPQLMDQAKATWREFFNLPMELKNMHANSPKTYEGYGSRLGVEKGAILDWSDYYYLHYQPSSLKDYTKWPSLPLHCREILEDYCKEMVKLCENLMKILSKNLGLQEDRLQNAFGGKEESGGCLRVNYYPKCPQPELTLGISPHSDPGGLTILLPDEQVASLQVRGSDDAWITVEPAPHAFIVNMGDQIQMLSNSIYKSVEHRVIVNPENERLSLAFFYNPKGNVPIEPLKELVTVDSPALYSSTTYDRYRQFIRTQGPRSKCHIDELKSPR
B5: enzyme S252E/S281E/S285E/S287E (Schizosaccharomyces pombe, UniProt P78804); chain MSTPYEPEFQQAYKEIVGSIESSKLFEVHPELKRVLPIISIPERVLEFRVTWEDDKGNCRVNTGYRVQFNSALGPYKGGLRFHPSVNLSILKFLGFEQIFKNALTGLPMGGGKGGSDFDPKGKSDNEIRRFSQAFMRQLFRYIGPQTDVPAGDIGVTGFVVMHMFGEYKRLRNEYSGVVTGKHMLTGGSNIRPEATGYGVVYYVKHMIEHRTKGAETLKGKRVAISGSGNVAQYAALKCIQEGAIVKSISDEKGVLIAKTAEGLVPEEIHEIMALKEKRAEIADEAELCKKHHYIAGARPWTNVGEIDIALPCATQNEVSGEEAAALIKQGCRYVAEGSNMGSSAEAVEVFEKSRASGEGCWLAPGKAANAGGVAVSGLEMAQNAQFSTWTHAEVDAKLAGIMQNIFEQSTDVASKYCDSGSNNIPSLVDGANIAGFLKVATAMQAVGDWW
B6: aspC A106G/A218G/F210I/I29V/I33V/I68L/I71L/N30D/N64T/S135A/T100S/V136I/V375I (Escherichia coli, UniProt P00509); chain MFENITAAPADPILGLADLFRADERPGKVDLGVGVYKDETGKTPVLTSVKKAEQYLLENETTKTYLGLDGLPEFGRCTQELLFGKGSALINDKRARTAQSPGGTGGLRVAADFLAKNTSVKRVWVSNPSWPNHKAIFNSAGLEVREYAYYDAENHTLDFDALINSLNEAQAGDVVLFHGCCHNPTGIDPTLEQWQTLAQLSVEKGWLPLIDFAYQGFGRGLEEDAEGLRAFAAMHKELIVASSYSKNFGLYNERVGACTLVAADSETVDRAFSQMKAAIRANYSNPPAHGASVVATILSNDALRAIWEQELTDMRQRIQRMRQLFVNTLQEKGANRDFSFIIKQNGMFSFSGLTKEQVLRLREEFGVYAVASGRINVAGMTPDNMAPLCEAIVAVL
Sequence of UniProt Q9C969 (whole entry, looked up): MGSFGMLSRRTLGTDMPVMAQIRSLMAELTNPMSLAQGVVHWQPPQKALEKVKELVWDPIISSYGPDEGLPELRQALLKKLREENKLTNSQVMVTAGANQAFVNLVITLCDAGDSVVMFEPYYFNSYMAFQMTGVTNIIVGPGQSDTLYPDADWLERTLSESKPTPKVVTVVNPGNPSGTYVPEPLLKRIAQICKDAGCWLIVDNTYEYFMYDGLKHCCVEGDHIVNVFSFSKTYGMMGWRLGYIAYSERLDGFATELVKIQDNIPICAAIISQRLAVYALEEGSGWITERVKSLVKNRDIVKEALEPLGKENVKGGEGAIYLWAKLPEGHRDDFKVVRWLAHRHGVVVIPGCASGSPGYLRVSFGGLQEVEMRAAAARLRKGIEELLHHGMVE
Sequence of UniProt P11446 (whole entry, looked up): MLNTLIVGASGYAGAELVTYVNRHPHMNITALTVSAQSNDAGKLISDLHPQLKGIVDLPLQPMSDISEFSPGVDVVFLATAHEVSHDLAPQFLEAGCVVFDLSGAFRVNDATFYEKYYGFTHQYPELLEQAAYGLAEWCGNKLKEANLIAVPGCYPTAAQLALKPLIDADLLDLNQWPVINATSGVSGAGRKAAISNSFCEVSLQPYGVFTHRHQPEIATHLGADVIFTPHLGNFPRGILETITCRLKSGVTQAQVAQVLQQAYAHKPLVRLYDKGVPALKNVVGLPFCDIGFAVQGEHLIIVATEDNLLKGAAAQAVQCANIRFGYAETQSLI
Sequence of UniProt P06672 (whole entry, looked up): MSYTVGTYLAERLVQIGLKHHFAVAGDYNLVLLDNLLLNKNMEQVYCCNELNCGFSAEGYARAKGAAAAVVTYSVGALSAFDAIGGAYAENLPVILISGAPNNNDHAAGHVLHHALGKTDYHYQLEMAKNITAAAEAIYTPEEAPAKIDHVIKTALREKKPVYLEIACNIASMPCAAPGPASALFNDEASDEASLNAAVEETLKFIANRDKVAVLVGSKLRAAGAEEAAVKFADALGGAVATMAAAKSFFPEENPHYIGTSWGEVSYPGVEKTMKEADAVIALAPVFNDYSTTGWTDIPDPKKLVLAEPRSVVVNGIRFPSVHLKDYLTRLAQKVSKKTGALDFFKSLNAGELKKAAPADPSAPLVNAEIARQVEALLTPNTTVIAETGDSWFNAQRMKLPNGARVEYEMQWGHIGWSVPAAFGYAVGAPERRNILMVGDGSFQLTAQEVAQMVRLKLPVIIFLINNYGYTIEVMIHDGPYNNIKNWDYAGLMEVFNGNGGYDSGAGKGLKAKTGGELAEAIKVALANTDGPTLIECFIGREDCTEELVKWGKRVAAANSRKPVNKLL

Molecule = B1 (SCO6712 V290N/Y229F); target or system = CCn1c(=NN=c2sc3cc(S(=O)(=O)O)ccc3n2CC)sc2cc(S(=O)(=O)O)ccc21; assay = steady-state kinetics; conditions = pH 7, 37 °C, NaCl 150 mM, added: O2 cosubstrate; endpoint = Km; result = 1100 µM
Molecule = QLMPFGSLLD; target or system = HLA class I histocompatibility antigen, A alpha chain, allele A*02:01 (Homo sapiens, UniProt P04439); assay = conformational ELISA; test system = peptide; conditions = concentration not given; scale = reference: positive control peptide, direction not given; endpoint = binding score; result = 5.9%
Molecule = argC (Escherichia coli, UniProt P11446); target or system = N[C@@H](CCC=O)C(=O)O; assay = steady-state kinetics; conditions = pH 7.6, apparent, added: 1 mM NADP+; endpoint = Km; result = 110 µM
Molecule = B2 (enzyme); target or system = O=C(O)CCS; assay = steady-state kinetics; conditions = pH 8, 25 °C, added: O2; endpoint = Km; result = 13 µM
Molecule = B3 (PYCR2 R119C); target or system = NC(=O)C1=CN([C@@H]2O[C@H](COP(=O)(O)OP(=O)(O)OC[C@H]3O[C@@H](n4cnc5c(N)ncnc54)[C@H](OP(=O)(O)O)[C@@H]3O)[C@@H](O)[C@H]2O)C=CC1; assay = steady-state kinetics; conditions = pH 7.5, 37 °C, apparent, cofactor varied, added: DL-P5C 5000 µM; endpoint = Km; result = 537 µM
Molecule = ALQQWVTQV; target or system = Jurkat T cells expressing 1G4 TCR; assay = NFAT-eGFP reporter, flow cytometry; test system = peptide; conditions = concentration not given, HLA-A*02:01 NY-ESO system; endpoint = reporter activation; result = 78%
Molecule = GGGAGAACUUCGACCAGAAGCUGGAUUACGCGAAAAAACUCCUCGCCUAUCGCAGCAAUGUAUGUGCGCAUACAUGGAUCCUC (ssRNA; 2'-fluoro pyrimidines); target or system = integrin alphaV/beta3 31-992/27-718 (Homo sapiens); assay = SPR; test system = RNA; conditions = added: MnCl2 1 mM; scale = higher = more binding; endpoint = relative binding; result = 40.6 RU
Molecule = B4 (enzyme); target or system = CC/C=C\C[C@@H]1C(=O)CC[C@@H]1CC(=O)O; assay = steady-state kinetics; conditions = pH 7.5, 20 °C; endpoint = Km; result = 11.5 µM
Molecule = pdc (Zymomonas mobilis, UniProt P06672); target or system = CC(=O)C(=O)O; assay = steady-state kinetics; conditions = pH 6, 30 °C; endpoint = Km; result = 310 µM
Molecule = B5 (enzyme S252E/S281E/S285E/S287E); target or system = NC(=O)c1ccc[n+]([C@@H]2O[C@H](COP(=O)(O)OP(=O)(O)OC[C@H]3O[C@@H](n4cnc5c(N)ncnc54)[C@H](OP(=O)(O)O)[C@@H]3O)[C@@H](O)[C@H]2O)c1; assay = steady-state kinetics; conditions = pH 7, 30 °C, apparent; endpoint = Km; result = 360 µM
Molecule = enzyme (Arabidopsis thaliana, UniProt Q9C969); target or system = O=C(O)C(=O)Cc1ccc(O)cc1; assay = steady-state kinetics; endpoint = Km; result = 60 µM and 65.1 µM and 31.5 µM
Molecule = GSGAGSETSV; target or system = human MAGI1-2/6 PDZ construct (MBP fusion); assay = automated holdup; test system = peptide, crude extract; conditions = concentration not given, uncorrected, unit not given; scale = reference: biotin control resin, higher = stronger binding; endpoint = binding intensity; result = 0.208
Molecule = enzyme (Nitrosopumilus maritimus, UniProt A9A5X4); target or system = N[C@H](COP(=O)(O)O)Cc1c[nH]cn1; assay = steady-state kinetics; conditions = pH 7.8, 25 °C; endpoint = Km; result = 73 µM
Molecule = GSGAGSETKM; target or system = human MAGI1-2/6 PDZ construct (MBP fusion); assay = automated holdup; test system = peptide, purified PDZ protein; conditions = concentration not given, unit not given; scale = reference: biotin control resin, higher = stronger binding; endpoint = binding intensity; result = -0.0583
Molecule = B6; target or system = N[C@@H](Cc1ccc(O)cc1)C(=O)O; assay = steady-state kinetics; conditions = pH 7.5, 25 °C, added: PLP 20 µM; endpoint = Km; result = 8000 µM

Repeated from above:
Molecule = pdc (Zymomonas mobilis, UniProt P06672); target or system = CC(=O)C(=O)O; assay = steady-state kinetics; conditions = pH 6, 30 °C; endpoint = Km; result = 310 µM
